# Published values gathered from unrelated publications.
# PIK3CA H1047Y: Phosphatidylinositol 4,5-bisphosphate 3-kinase catalytic subunit alpha isoform (PIK3CA, Homo sapiens, UniProt P42336, H1047Y)
# PIK3CA H1047L: Phosphatidylinositol 4,5-bisphosphate 3-kinase catalytic subunit alpha isoform (PIK3CA, Homo sapiens, UniProt P42336, H1047L)
# PIK3CA: Phosphatidylinositol 4,5-bisphosphate 3-kinase catalytic subunit alpha isoform (PIK3CA, Homo sapiens, UniProt P42336)
Compound,target,assay,setting,how to read,remaining binding
CC(C)=CC1OC(C)(C)C2C=C3C(=O)C(Cl)=CC(O)C3C3C(O)C4OC4C(=O)C132 (centres unmarked),PIK3CA H1047Y,"cell-free assay, competition with immobilised ligand",10 µM,,70%
COc1c(Cl)cccc1Nc1c(-c2ccncc2C#C[C@@]2(C)CCCN2C(=O)/C=C/CN(C)C)[nH]c2c1C(=O)NCC2,"PIK3CA (Homo sapiens, UniProt P42336, M1043I)","binding, competition with immobilised ligand",3 µM,,66%
Cc1ccc(-c2c(/C=C(\C#N)C(=O)NC(C)C)n(CCCO)c3ncnc(N)c23)cc1,PIK3CA H1047L,"cell-free assay, competition with immobilised ligand",1 µM,,93%
C=CC(=O)N1CCc2ccc(-n3c(=O)ccc4cnc5ccc(-c6cnn(C)c6)cc5c43)cc21,PIK3CA H1047L,KINOMEscan,1 µM,relative to: DMSO control,83%
CNC1C[S+]2CC[S+]3CC[S+](C1)[Ru-4]321([N]=C=S)[n]2c3ccc(OC)cc3c3c4c(c5cc(F)c[n+]1c5c32)C(=O)NC4=O (centres unmarked),PIK3CA H1047Y,KinomeScan,0.1 µM,relative to: untreated,100%
CC(=O)c1cnc(N)nc1N1CC[C@H]1c1nn2ccc(Cl)c2c(=O)n1-c1ccccc1,PIK3CA,"cell-free assay, competition with immobilised ligand",10 µM,,71%
CNC(=O)C1CCN(c2cc(C)c(F)cc2NC(=O)c2ccc(-c3cc(O)ccc3C)c(C)c2)CC1,PIK3CA,"binding, competition with immobilised ligand",1 µM,,93%
C=CC(=O)N1CCCC(n2c(=O)c3ncccc3n(Cc3ccc(Oc4ccccc4)cc3)c2=O)C1 (centres unmarked),"PIK3CA (Homo sapiens, UniProt P42336, I800L)","cell-free assay, competition with immobilised ligand",1 µM,,51%
Nc1ncc2c(n1)-c1c([nH]c3ccc(C4=CCOCC4)cc13)CCC2,"PIK3CA (Homo sapiens, UniProt P42336, Q546K)","binding, competition with immobilised ligand",1 µM,,100%
CCN1CCN(Cc2ccc(C(=O)Nc3ccc(C)c(NCc4cnc5[nH]ccc5c4OC)c3)cc2C(F)(F)F)CC1,"PIK3CA (Homo sapiens, UniProt P42336, E542K)","binding, competition with immobilised ligand",1 µM,,97%
Cc1cnc2nc1Nc1cccc(c1)COC/C=C/COCc1cc(ccc1OCCN1CCOCC1)N2,"PIK3CA (Homo sapiens, UniProt P42336, E545A)",binding,0.1 µM,,61%
